{"data": "Measurements gathered from unrelated publications", "note": "A part holds a random share of what one study measured. Changes are numbered by the printed parent chain."}
{"data": "Study 1", "target": "CCND1, cyclin fold, Cln2 fusion (human)", "method": "yeast growth competition, sequencing", "matrix": "yeast", "notes": "weak parent motif", "relative to": "not given", "direction": "higher = stronger binding", "parent": "SLBP docking peptide (human); ARYKRKLLINDFG"}
{"Change": "K6W", "normalised enrichment score": 0.947}
{"Change": "R5K L8F", "normalised enrichment score": 0.0926}
{"Change": "A1L", "normalised enrichment score": -0.332}
{"Change": "R2W", "normalised enrichment score": 0.678}
{"Change": "G13R", "normalised enrichment score": -0.475}
{"Change": "G13H", "normalised enrichment score": 0.0758}
{"Change": "I9Q", "normalised enrichment score": -0.548}
{"Change": "R2G", "normalised enrichment score": 0.444}
{"data": "Study 2", "target": "RNA binding protein fox-1 homolog 2, RRM domain, GST-SBP tag (RBFOX2, Homo sapiens, UniProt O43251-10, residues 100-194)", "method": "RNA Bind-n-Seq", "form": "RNA", "matrix": "in vitro", "tested at": "365 nM", "notes": "natural RNA segment, single round, ends assumed", "relative to": "no-protein control", "direction": "higher = stronger binding", "Target sequence (chain)": "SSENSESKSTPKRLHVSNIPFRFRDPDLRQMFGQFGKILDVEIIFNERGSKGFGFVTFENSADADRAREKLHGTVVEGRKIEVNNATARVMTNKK"}
{"Oligonucleotide": "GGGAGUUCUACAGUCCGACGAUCAAAACAAACCCCGCUCAGAAACAAGAGAAAAUUGGGGCCGCGAAGAACUCACAGCCACGGAAGAGUUGUUGCAUUCAGAUUCUUGAGAAACAUUUGUUGCUCGGCAACAGUGGAAUUCUCGGGUGCCAA", "RBNS enrichment (R)": 1.2}
{"Oligonucleotide": "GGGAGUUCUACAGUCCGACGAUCGAUCAGCUCGUGUAAAACACACCGUCUUCUUGGCCUCCUGGCCAGUCUUUCUGCGAAUAGUCCUCUCCCUGGCCAGUUGAAUGGGGGAAGCUGCUGGCACAGGAAGGAGAUGGAAUUCUCGGGUGCCAA", "RBNS enrichment (R)": 0.586}
{"Oligonucleotide": "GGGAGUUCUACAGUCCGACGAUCCUGGCUCUCCAUUUCUGGCCUCAGUUGUCUACAGGACAGUGGUCAGGGAUGCCUGGAGGCAUAUAUCCAGCUGCCACCAAGGGGCACUGUUUGUUCCCACUUAUGUGAGUUGGAAUUCUCGGGUGCCAA", "RBNS enrichment (R)": 0.258}
{"Oligonucleotide": "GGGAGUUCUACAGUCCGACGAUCUAUGUAUUUUGGCCAAAAGCCAGCAGCACUUCACAAAAACAAAACACAAACCUAAGCUAACAAAAUGACUGCAUUCGUCUCUUUUUUAAAGGUAGAGAUUAAACUGUAUAUGGAAUUCUCGGGUGCCAA", "RBNS enrichment (R)": 0.967}
{"Oligonucleotide": "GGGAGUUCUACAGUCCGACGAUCCUUCCUUGGGCCUUUACUUCUUUUCUUCCUCCUUGGUUUCAGUUCCCAUGUGCUAUCAUUAUAAUCAUGCAGACUUUUACUUCAGUUGCUUCUGAAAGCACUAAGUUUUCUGGAAUUCUCGGGUGCCAA", "RBNS enrichment (R)": 0.399}
{"data": "Study 3", "target": "Sal-like protein 4, full length isoform B (SALL4, Homo sapiens, UniProt Q9UJQ4-2, residues 1-616)", "method": "universal PBM", "form": "double-stranded DNA, one strand shown", "matrix": "in vitro", "tested at": "not given", "notes": "8-mer, flanks averaged, mean of replicates", "direction": "higher = stronger binding"}
{"Oligonucleotide": "GACGGAGC", "E-score": -0.276}
{"Oligonucleotide": "AATCGGCA", "E-score": 0.0736}
{"Oligonucleotide": "AGGTTTAC", "E-score": 0.0149}
{"Oligonucleotide": "ACGCCTCT", "E-score": -0.0832}
{"Oligonucleotide": "AGGGTTCA", "E-score": -0.104}
{"Oligonucleotide": "GAGAGTCC", "E-score": -0.22}
{"Oligonucleotide": "ACCACTCC", "E-score": -0.116}
{"Oligonucleotide": "ACAGGCAC", "E-score": -0.193}
{"Oligonucleotide": "GTTGGCAA", "E-score": 0.03}
{"data": "Further values, each from its own experiment"}
{"Molecule": "PhoQ, residues 284 288 289 292 302 303 NLSRDF", "target": "PhoP, residues 12 14 15 18 19 SEGLL (Escherichia coli, UniProt P23836)", "assay": "Sort-seq, measured: YFP reporter", "test system": "E. coli", "setting": "PhoQ-PhoP variant library, together with: 10 µM Mg2+", "how to read": "relative to: high Mg2+ state, higher = stronger signaling", "measurement": "fold induction", "value": 10.7}
